Published values pooled from the literature.
Every numbered part comes from another study and shows a few of its results, in no order.

Sample 1
Target: Eukaryotic initiation factor 4A-I (EIF4A1, Homo sapiens, UniProt P60842, residues 1-406, full length assumed)
UniProt P60842, sequence (whole entry, looked up): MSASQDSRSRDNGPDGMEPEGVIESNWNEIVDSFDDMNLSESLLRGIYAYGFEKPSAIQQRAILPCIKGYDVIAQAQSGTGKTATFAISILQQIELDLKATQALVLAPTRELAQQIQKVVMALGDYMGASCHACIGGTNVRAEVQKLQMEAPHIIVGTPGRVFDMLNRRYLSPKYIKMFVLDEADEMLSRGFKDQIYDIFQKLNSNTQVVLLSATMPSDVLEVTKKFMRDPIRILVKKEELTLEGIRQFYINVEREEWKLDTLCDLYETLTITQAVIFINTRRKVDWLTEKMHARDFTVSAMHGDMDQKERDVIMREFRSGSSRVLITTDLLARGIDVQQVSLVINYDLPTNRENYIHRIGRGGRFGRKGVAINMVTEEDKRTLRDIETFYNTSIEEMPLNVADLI
Method: RNA Bind-n-Seq
Form: RNA
Sample: in vitro
Tested at: 90 pmol
Notes: 4-mer, random 30-nt RNA, single round
Added: 3 µM DMDA-PatA, 2 mM ADP, 2 mM phosphate
Relative to: input library
Reading: higher = stronger binding
Oligonucleotide | 4-mer enrichment
CGAC | 0.825 fold
UGGU | 1.23 fold
CUUA | 0.654 fold
UCCC | 0.683 fold
CUUU | 0.698 fold
UCUG | 0.732 fold
AAGA | 1.16 fold
CGGC | 0.952 fold
CAAU | 0.839 fold
GAGA | 1.55 fold
AGAA | 1.16 fold
GCUG | 0.681 fold
UAGG | 1.08 fold
CCCG | 0.641 fold

Sample 2
Target: Histone acetyltransferase KAT6A, winged helix 2, GST fusion (KAT6A, Homo sapiens, UniProt Q92794, residues 85-181)
Method: protein binding microarray
Form: double-stranded DNA, one strand shown
Sample: in vitro
Tested at: not given
Notes: 8-mer, flanks averaged, mean of 2 arrays, mostly near background
Relative to: not given
Reading: higher = stronger binding
Target sequence (chain): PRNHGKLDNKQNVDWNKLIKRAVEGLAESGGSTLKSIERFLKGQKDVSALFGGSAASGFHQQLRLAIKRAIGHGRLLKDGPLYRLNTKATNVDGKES
Oligonucleotide | E-score
GCAAACGA | 0.195
AGTCGTTG | -0.235
CGCTCCCA | 0.01
CCGGCAGG | 0.2
CTCACTCC | 0.0961
CCAATGAC | -0.14
ATAATTGA | -0.0891
CGCGGTTA | 0.0848
ACCTACAG | -0.05
AGTACGCC | -0.0363
CTCAACGC | -0.0957
CCCGCACC | 0.132
CGCTCGAA | -0.00934
CTTTCCCA | -0.029
ATTTAGCG | -0.0234
ACCGCTGA | -0.0927
CTGACGGA | -0.0612
GTCGATGA | -0.0812
CAGGAAGG | -0.102
ATGTACCC | -0.196
GGGTCCTA | -0.0948
AGACCGAC | 0.0354
ACACGGGG | 0.12
AAATTGGA | -0.0769
GACTACGC | -0.0498

Sample 3
Target: Interferon regulatory factor 5, full length, phosphomimetic (IRF5, Homo sapiens, UniProt Q13568-2, residues 1-514, S451D/S453D/S456D/S462D)
Method: protein-binding microarray
Form: double-stranded DNA, one strand shown
Sample: in vitro
Tested at: 940 nM top
Notes: 60-bp whole probe
Added: salmon DNA 0.4 mg/ml
Relative to: random background probes
Reading: higher = stronger binding
Constant ends, left off below: GCCTAGCAC … GTCTTGATTCGCTTGACGCTGCTG
Oligonucleotide | fitted relative affinity
TTAGGTTCCGGGTTCGGTTAGTGCTAG | 1.71 z-score
GACGAACTAGGGTATCGAGACGTGCTA | 0.101 z-score
CCCAATTCTCTTTTCACTTTGTGCTAG | 2.49 z-score
TCATGTTTGAGAAATCAGACTGTGCTA | -0.178 z-score
TCAATTTTCAATTCCTGACTGTGCTAG | 0.197 z-score
GAACTTTGGCCTCTAGGTTTGTGCTAG | -0.527 z-score
TCAGTCCTGGCTTTGACACTGTGCTAG | -0.407 z-score
TCAGATCTCAGTTTCGATTAGTGCTAG | 8.46 z-score
TTAGGTGTCCTTTCCCTTTAGTGCTAG | 0.214 z-score
GACGGTCTCCTACTACTGACGTGCTAG | 0.127 z-score
GACGGCATCGGGTATCGGGACGTGCTA | 0.403 z-score
GTCGGACTGGGTATCGGGACGTGCTAG | 1.24 z-score
TTAGATATCAGTATGGATTAGTGCTAG | -0.192 z-score
TTAGAACTGAGTATCCATTAGTGCTAG | -0.193 z-score
TTAGGTATTCTTATCCTTTAGTGCTAG | 0.226 z-score
GGAGGCCTCTTCATTCATTAAGTGCTA | -0.00952 z-score
GACGGTATCCCTCTCCTGACGTGCTAG | 0.154 z-score
GGCCCTTTGCTTTCCTGATGGTGCTAG | 0.124 z-score
TCACCACTCCAGTTCTGACTGTGCTAG | 0.0785 z-score
TTAAATATCAGTATCGATTAGTGCTAG | 5.63 z-score
TCACTCTCTCTATTCTGTGGGTGCTAG | 2.76 z-score
TTAGATATCAGTTTCAATTAGTGCTAG | 2.83 z-score
GACGAGATCAGTATCGAGACGTGCTAG | 3.39 z-score
TTAGATATCGGGGCTGGATTAGTGCTA | 0.241 z-score
GACGATTTCAGGTATCGAGACGTGCTA | 1.2 z-score

Sample 4
Target: UBE2C UBC core domain (UniProt O00762)
Method: yeast two-hybrid
Sample: yeast
Notes: mostly zero background
Relative to: not given
Reading: higher = stronger interaction
B1: IRF2BPL RING domain (UniProt Q9H1B7); chain SPMANSGPLCCTICHERLEDTHFVQCPSVPSHKFCFPCSRESIKAQGATGEVYCPSGEKCPLVGSNVP
B2: RNF170 RING domain (UniProt Q96K19); chain TRQQFYTDMYCPICLHQASFPVETNCGHLFCGACIIAYWRYGSWLGAISCPICRQTVTLLLTVF
B3: TRIM69 RING domain (UniProt Q86WT6); chain VIQDITMELHCPLCNDWFRDPLMLSCGHNFCEACIQDFWRLQAKETFCPECKMLCQYNNCTF
B4: CUL9 RING domain (UniProt Q8IWT3); chain AQAVPVRPDHCPVCVSPLGCDDDLPSLCCMHYCCKSCWNEYLTTRIEQNLVLNCTCPIADCPAQPTGAFIR
Residues (chain): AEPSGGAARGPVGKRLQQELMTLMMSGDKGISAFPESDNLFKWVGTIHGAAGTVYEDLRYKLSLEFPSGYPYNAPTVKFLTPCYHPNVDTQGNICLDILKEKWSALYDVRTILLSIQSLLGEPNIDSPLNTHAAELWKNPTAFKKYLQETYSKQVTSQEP
Molecule | lacZ reporter activity
B1 (IRF2BPL RING domain) | 0
B2 (RNF170 RING domain) | 0
VTLSLTLPITCHICLGKVRQPVICINNHVFCSICIDLWLKNNSQCPACRVPITPENPCK (OBI1 RING domain (UniProt Q5W0B1)) | 0
B3 (TRIM69 RING domain) | 0
FASPPDSNFVCSVCHGVLKRPARLPCSHIFCKKCILRWLARQKTCPCCRKEVKRKKVVH (RNF151 RING domain (UniProt Q2KHN1)) | 0
KTLSRFGIQPCSICLGDAKDPVCLPCDHVHCLRCLRAWFASEQMICPYCLTALPDEFSPA (RNF213 RING domain (UniProt Q63HN8)) | 0
DDENSDNSNECVVCLSDLRDTLILPCRHLCLCTSCADTLRYQANNCPICRLPFRALLQIR (MGRN1 RING domain (UniProt O60291)) | 0
YWAMDSTFELCKICAESNKDVKIEPCGHLLCSCCLAAWQHSDSQTCPFCRCEIKGWEAVS (CBLC RING domain (UniProt Q9ULV8)) | 0
B4 (CUL9 RING domain) | 0
QLQDIKEQTMCPVCLDRLKNMIFLCGHGTCQLCGDRMSECPICRKAIERRILLY (MIB1 RING domain (UniProt Q86YT6)) | 0
PEELQAMDNVCIICREEMVTGAKRLPCNHIFHTSCLRSWFQRQQTCPTCRMDVLRASLPA (SYVN1 RING domain (UniProt Q86TM6)) | 0
QLRRLQEERTCKVCMDKEVSVVFIPCGHLVVCQECAPSLRKCPICRGIIKGTVRTF (BIRC2 RING domain (UniProt Q13490)) | 0

Sample 5
Target: RING finger protein unkempt homolog, zinc fingers 1-6, GST-SBP tag (UNK, Homo sapiens, UniProt Q9C0B0, residues 30-357)
Method: RNA Bind-n-Seq
Form: RNA
Sample: in vitro
Tested at: not given
Notes: RNA with constant flanks, human-mouse chimeric sites, ends assumed
Relative to: input RNA pool
Reading: higher = stronger binding
Constant ends, left off below: GGGAGUUCUACAGUCCGACGAUC … CAACAGAGGAUUGAGCAUCA
Residues (chain): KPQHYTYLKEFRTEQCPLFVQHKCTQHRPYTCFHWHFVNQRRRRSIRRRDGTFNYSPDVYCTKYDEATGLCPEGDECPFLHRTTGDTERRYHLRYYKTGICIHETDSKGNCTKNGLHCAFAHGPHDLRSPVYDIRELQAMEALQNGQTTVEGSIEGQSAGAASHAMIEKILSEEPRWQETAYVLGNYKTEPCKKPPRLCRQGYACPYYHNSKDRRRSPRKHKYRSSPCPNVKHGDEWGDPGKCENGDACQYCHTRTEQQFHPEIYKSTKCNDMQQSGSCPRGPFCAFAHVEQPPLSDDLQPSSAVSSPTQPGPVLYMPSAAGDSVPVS
Oligonucleotide | bound/input enrichment
GGACCAUAAUCAUGGAGGACAUAAUGCAGCUCCCCAAAGCGCGCGUCAACGCCAGCAUGCUAGCUCAGUAUAUCGACCGGCCCGUGUGCUUCGUGGGGAAGCUGGAAAAGAUUCAUCCCA | 0.101 ratio
AUAGAUGAAAUUGAUGUGGACCAGGAAGGAAUUGCUGAAAUGAUGCUGGAUGAAAAUGCUAUUGCUCAGGUCCCACGCCCUGGCACAUCUUUGAAGCUCCCUGGCACUAAUCAGACAGGA | 0.237 ratio
UCUUUAAAAAAAAAAUUACCUUUUCUGACAGUGCUUUCCCUCCCAUAGAUCCACGUUCAAGCUCAAAGAGCAAAGGCUUUGCACGGAGCUCAAACAUAAAAGAAAGAAAGAUUUCUGAGA | 0.636 ratio
CUGAAAAACACAGAUAUCAAAGUUGUUGACUUUGGAAGUGCAACAUAUGAUGAUGAACAUCAUAGUACUUUGGUGUCUACCCGGCACUACAGAGCUCCCGAGGUCAUUUUGGCUUUAGGU | 0.406 ratio
AACAGAUUGUCUUUAAGCAUUCCAAGCAAUGCUUGGGGGGUGAUCAUUGUUGCCCAUGUGCCUUCUGUAAUAGAUGGAAUGCUGUUCCAUGUUACAUCUUUCCUUCACUCCAGAAUUGUU | 0.0804 ratio
AGAUUCCCCCUCCUGAGACCUCCUCCGAAGUUGGAGUCUCUUACAGAUGGUUCAUCUCCUGUUAGCGUUUUAGUUUGGACCACCCAGCCUUGGACAAUUCCCGCCAAUGAAGCUGUUUGC | 3.77 ratio
UUCAAAGAAAAGGGCAGCUGUGUCAUUUCAUAAGUAACUCUGGGGGAGGGAAAUUCUAACUAGUUUGUUAAUUUUCCCCCAAAUGAAACCAACAUGCGUGUUGAAGAACUGAGAAAAAAU | 0.282 ratio
AAAGCCCAAGUAUUUUGAAAAAAUUCAAACAGAUUUGACAAGGGUAGCCAGCUUGGAGUCUAGCAACUUGCCAAUGUGUUUACCAAUUUUGGGGGCUGUUUUUCUUUUCUUCUUUCAAAU | 0.334 ratio
CCACCAGGAUCCCAGAAACAUGACCCUUGCAGCCUAUAAAGAGAAGAUGAAGGAGCUCCCGCUGGUGUCCUUGUUCUGCUCCUGCUUCCUGGCCGAUCCCCUGAAUAAGUCGUCCUACAA | 0.211 ratio
GACCCACAGUGGUCUGAGGAGCAACUCAUUGCUGCAAAAUUCUGUUUUGCUGGCCUUGUUAUAGGGCAGACUGAAGUGGACAUCAUGAGUCAUGCUACACAAGCUAUUUUUGAAAUUCUG | 0.169 ratio
CUGGCCUGGCCCUCCCCUCUAGUGACCUUUCGUAUAGUCACUGCUUCUGCAUCAGAUACUUUCAGCUGCAACUCCCUGCAGGGUGGGGCACCCAUUUCAGGCAGAAGGUUUUGGUACCCU | 0.369 ratio

Repeated from above (sample 2):
Oligonucleotide | E-score
AGTACGCC | -0.0363
ACCGCTGA | -0.0927
CCAATGAC | -0.14
AGTCGTTG | -0.235
CAGGAAGG | -0.102
GTCGATGA | -0.0812
AGACCGAC | 0.0354
ATTTAGCG | -0.0234
ACCTACAG | -0.05
